Measured values from different studies.
Each numbered part is a random draw from the data of one study; scales do not carry over between parts.
Chain of UniProt Q00526 (whole entry, looked up): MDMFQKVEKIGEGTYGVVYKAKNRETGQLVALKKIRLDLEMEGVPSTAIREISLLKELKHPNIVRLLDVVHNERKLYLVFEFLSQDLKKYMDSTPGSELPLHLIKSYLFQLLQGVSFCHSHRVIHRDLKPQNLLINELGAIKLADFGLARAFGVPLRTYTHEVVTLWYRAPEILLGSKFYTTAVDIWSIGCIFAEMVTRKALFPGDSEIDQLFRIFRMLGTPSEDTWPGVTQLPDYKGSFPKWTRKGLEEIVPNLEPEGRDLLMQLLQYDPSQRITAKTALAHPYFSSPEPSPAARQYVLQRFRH
Chain of UniProt Q9P1W9 (whole entry, looked up): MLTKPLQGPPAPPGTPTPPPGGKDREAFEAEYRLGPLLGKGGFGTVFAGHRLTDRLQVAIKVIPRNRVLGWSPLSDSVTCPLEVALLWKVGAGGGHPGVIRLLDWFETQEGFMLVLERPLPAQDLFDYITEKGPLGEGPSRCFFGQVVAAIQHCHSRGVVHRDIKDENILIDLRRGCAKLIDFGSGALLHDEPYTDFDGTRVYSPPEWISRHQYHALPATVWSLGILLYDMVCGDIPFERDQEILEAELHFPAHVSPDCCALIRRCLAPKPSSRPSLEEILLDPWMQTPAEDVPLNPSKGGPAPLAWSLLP
Chain of UniProt P30530 (whole entry, looked up): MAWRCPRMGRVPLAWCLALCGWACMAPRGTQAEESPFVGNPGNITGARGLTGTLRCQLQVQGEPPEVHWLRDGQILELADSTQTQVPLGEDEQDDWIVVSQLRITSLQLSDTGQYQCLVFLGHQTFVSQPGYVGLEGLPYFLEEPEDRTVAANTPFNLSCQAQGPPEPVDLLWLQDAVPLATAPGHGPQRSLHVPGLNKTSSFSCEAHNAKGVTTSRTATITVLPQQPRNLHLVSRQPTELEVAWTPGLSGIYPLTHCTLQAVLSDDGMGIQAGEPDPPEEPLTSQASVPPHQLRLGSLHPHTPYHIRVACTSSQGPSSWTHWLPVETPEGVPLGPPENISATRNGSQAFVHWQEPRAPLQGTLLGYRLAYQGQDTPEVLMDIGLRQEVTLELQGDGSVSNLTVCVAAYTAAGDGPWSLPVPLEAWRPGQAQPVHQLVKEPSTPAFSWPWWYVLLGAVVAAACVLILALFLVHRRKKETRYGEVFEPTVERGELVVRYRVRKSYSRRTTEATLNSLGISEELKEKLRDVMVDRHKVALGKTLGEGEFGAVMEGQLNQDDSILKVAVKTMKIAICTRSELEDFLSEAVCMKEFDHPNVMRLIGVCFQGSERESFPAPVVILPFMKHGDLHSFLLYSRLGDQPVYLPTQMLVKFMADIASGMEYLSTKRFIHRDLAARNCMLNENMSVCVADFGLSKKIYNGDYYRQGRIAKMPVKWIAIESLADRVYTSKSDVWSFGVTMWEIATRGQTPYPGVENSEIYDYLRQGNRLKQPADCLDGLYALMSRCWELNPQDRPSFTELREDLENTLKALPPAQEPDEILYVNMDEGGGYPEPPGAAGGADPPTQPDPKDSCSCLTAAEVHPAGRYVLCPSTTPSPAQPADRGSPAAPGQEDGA
Chain of UniProt Q13163 (whole entry, looked up): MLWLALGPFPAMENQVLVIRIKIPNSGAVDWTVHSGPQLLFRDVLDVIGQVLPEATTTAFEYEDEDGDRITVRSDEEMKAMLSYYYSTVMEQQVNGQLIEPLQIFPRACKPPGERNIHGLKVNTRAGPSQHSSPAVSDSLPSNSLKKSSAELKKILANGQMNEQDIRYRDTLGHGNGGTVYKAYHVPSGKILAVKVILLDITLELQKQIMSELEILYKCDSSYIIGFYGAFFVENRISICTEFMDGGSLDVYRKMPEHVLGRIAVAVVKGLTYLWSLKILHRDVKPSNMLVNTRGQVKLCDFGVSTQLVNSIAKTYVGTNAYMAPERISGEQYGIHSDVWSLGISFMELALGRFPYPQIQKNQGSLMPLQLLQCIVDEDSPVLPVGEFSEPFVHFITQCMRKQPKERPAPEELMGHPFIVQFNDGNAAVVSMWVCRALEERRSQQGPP
Chain of UniProt Q00536 (whole entry, looked up): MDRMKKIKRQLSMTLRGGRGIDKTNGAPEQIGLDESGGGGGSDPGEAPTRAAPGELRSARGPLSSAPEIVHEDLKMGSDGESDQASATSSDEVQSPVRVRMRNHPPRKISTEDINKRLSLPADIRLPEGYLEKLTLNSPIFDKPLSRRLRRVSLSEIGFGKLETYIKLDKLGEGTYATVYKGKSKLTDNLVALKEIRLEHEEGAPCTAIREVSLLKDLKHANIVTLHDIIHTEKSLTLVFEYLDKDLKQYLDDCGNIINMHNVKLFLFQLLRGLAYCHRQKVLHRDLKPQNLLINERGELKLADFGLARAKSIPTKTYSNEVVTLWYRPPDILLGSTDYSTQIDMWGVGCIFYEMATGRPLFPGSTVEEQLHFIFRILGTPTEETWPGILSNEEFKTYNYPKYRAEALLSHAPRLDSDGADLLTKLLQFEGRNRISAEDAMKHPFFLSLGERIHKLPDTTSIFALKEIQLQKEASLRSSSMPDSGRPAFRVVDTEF
Chain of UniProt Q15418 (whole entry, looked up): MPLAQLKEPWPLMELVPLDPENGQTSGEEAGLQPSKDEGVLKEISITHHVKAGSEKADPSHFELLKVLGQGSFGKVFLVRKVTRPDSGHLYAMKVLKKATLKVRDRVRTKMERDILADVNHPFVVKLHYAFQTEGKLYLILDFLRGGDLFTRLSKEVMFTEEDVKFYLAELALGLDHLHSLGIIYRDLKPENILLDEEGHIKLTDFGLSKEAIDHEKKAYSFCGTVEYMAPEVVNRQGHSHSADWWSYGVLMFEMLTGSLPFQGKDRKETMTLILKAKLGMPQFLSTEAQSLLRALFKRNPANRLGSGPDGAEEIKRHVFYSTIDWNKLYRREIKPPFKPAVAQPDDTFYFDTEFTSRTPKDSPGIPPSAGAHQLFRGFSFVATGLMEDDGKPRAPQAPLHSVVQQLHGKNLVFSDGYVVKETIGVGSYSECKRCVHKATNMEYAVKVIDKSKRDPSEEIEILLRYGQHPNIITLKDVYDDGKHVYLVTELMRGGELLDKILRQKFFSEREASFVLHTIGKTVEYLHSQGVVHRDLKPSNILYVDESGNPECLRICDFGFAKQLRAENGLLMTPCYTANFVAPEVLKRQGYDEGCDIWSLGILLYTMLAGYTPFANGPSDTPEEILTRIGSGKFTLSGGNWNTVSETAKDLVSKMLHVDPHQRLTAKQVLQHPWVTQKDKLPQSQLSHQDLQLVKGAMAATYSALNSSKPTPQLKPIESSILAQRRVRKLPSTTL
Chain of UniProt O00141 (whole entry, looked up): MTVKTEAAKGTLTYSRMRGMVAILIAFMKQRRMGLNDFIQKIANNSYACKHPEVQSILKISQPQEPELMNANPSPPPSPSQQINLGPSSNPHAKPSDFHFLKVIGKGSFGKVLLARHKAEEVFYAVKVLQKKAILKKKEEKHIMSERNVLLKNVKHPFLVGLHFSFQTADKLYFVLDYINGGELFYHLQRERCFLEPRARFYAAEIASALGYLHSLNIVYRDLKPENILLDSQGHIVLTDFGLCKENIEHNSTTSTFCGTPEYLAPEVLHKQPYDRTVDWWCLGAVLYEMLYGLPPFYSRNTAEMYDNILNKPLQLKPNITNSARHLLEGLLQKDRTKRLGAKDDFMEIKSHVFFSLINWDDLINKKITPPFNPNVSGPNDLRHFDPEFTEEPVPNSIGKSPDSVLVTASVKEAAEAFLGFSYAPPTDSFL
Chain of UniProt Q8N5S9 (whole entry, looked up): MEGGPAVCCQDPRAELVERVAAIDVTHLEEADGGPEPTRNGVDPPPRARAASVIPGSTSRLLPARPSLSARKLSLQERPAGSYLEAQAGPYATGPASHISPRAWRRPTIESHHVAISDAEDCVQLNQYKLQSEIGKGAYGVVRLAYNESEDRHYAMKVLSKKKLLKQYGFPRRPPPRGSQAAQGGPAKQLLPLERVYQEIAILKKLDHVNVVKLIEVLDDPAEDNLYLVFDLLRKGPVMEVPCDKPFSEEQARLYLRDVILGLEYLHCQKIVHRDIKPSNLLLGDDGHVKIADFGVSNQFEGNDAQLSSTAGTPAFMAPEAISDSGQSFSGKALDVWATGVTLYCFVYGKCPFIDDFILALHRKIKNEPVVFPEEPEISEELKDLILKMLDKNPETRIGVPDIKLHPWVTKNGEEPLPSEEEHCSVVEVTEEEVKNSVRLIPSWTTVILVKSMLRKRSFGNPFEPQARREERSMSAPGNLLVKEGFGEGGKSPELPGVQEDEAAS
Chain of UniProt Q9BXA7 (whole entry, looked up): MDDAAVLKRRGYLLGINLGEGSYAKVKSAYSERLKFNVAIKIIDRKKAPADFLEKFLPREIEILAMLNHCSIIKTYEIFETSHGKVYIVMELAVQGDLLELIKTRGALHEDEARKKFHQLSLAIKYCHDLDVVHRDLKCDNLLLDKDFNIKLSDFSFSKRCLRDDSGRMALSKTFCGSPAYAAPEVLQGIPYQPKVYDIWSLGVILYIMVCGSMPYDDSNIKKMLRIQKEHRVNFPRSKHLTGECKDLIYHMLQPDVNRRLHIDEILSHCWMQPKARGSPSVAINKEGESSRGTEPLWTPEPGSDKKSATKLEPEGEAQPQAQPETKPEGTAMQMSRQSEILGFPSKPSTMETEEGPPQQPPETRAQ

Block 1
Host: human
Sample: microsomes or S9
Tested at: 2 µM
Time: 0.5 h
Structure (SMILES) | remaining compound [%]
CCCn1c(=O)c2ccc(C(=O)NC3CCCC3)cc2n2c(=O)n(Cc3ccc(C)cc3)nc12 | 70.1
CCCn1cnc2cc(-c3noc(-c4ccc(Br)o4)n3)ccc21 | 36.6
Cc1cc(NC(C)c2cc(C)n(C)n2)cc(C)c1Cl (stereo not shown) | 13.7
CCNc1nc(NC(C)(C)C)nc(Oc2ccc(=O)n(CC)n2)n1 | 59.2
CC(CC(=O)c1ccccc1)n1nnc(-c2ccccc2)n1 (stereo not shown) | 1.26
Cc1c(NC(=O)c2cnn3cc(Br)cnc23)c(=O)n(-c2ccccc2)n1C | 71.1
Cc1ccccc1-c1cccc2nc(-c3ccccc3)nn12 | 34.1
C=CCc1c(C)nc2c(-c3ccccc3)cnn2c1NCCCn1ccnc1 | 70.3
CC1CCN2c3cc(Cl)ccc3CC3(C(=O)OC(C)(C)OC3=O)C2C1 (stereo not shown) | > 100
CC1NC(=O)CCC1NS(=O)(=O)c1cccc2ccoc12 (stereo not shown) | 62.9
CCCn1c(=O)oc2cc(NC(=O)Nc3ccccc3OCC)ccc21 | 70.3
CCc1cnc(C)nc1NCC1CC(C(C)C)=NO1 (stereo not shown) | 95.8
OC(Cn1ccnc1)c1ccc(Cl)cc1Cl (stereo not shown) | 77.5
CCCc1ccc(-c2ccc(/C=C/C(=O)O)cc2)nc1 | 11.3

Block 2
Structure (SMILES): Cc1ccc(NC(=O)c2ccnc(C(F)(F)F)c2)cc1-c1cc(OCCO)nc(N2CCOCC2)c1
Tested at: 1 µM
target | method | notes | reference | remaining binding
NEK10 (Homo sapiens, UniProt Q6ZWH5) | competitive binding panel | – | vehicle | 98%
BUB1 (Homo sapiens, UniProt O43683) | competitive binding panel | – | vehicle | 100%
SGK1 (Homo sapiens, UniProt O00141) | competitive binding | SGK | – | 97%
PIM2 (Homo sapiens, UniProt Q9P1W9) | competitive binding panel | – | vehicle | 82%
CASK (Homo sapiens, UniProt O14936) | competitive binding panel | – | vehicle | 77%
SIK1 (Homo sapiens, UniProt P57059) | competitive binding | SIK | – | 94%
CDK15 (Homo sapiens, UniProt Q96Q40) | competitive binding | PFTAIRE2 | – | 100%

Block 3
SMILES: C[C@H](NC(=O)c1cnc2n1[C@](C)(Cc1ccc(C#N)cc1)C(=O)N2c1cc(Cl)c(F)c(Cl)c1)C(=O)NC1(c2ccccn2)CC1
Read-out: cell-free assay
Method: competition with immobilised ligand
Tested at: 1 µM
target | remaining binding
EPHA6 (Homo sapiens, UniProt Q9UF33) | 100%
MAP2K5 (Homo sapiens, UniProt Q13163) | 100%
PIK3CG (Homo sapiens, UniProt P48736) | 86%
MAP3K2 (Homo sapiens, UniProt Q9Y2U5) | 100%
CDK16 (Homo sapiens, UniProt Q00536) | 100%
CDK3 (Homo sapiens, UniProt Q00526) | 100%
GRK7 (Homo sapiens, UniProt Q8WTQ7) | 100%
AXL (Homo sapiens, UniProt P30530) | 100%
ROS1 (Homo sapiens, UniProt P08922) | 100%
GRK3 (Homo sapiens, UniProt P35626) | 100%
TBK1 (Homo sapiens, UniProt Q9UHD2) | 97%
AKT3 (Homo sapiens, UniProt Q9Y243) | 60%
STK25 (Homo sapiens, UniProt O00506) | 100%
PRKD1 (Homo sapiens, UniProt Q15139) | 100%
TSSK1B (Homo sapiens, UniProt Q9BXA7) | 79%
CAMKK1 (Homo sapiens, UniProt Q8N5S9) | 100%
RET (Homo sapiens, UniProt P07949) | 100%
NEK1 (Homo sapiens, UniProt Q96PY6) | 59%
EPHB4 (Homo sapiens, UniProt P54760) | 100%
Ribosomal protein S6 kinase alpha-1, C-terminal kinase domain (RPS6KA1, Homo sapiens, UniProt Q15418) | 100%

Block 4
Target: Glycogen synthase kinase-3 alpha (GSK3A, Homo sapiens, UniProt P49840)
Chain of UniProt P49840 (whole entry, looked up): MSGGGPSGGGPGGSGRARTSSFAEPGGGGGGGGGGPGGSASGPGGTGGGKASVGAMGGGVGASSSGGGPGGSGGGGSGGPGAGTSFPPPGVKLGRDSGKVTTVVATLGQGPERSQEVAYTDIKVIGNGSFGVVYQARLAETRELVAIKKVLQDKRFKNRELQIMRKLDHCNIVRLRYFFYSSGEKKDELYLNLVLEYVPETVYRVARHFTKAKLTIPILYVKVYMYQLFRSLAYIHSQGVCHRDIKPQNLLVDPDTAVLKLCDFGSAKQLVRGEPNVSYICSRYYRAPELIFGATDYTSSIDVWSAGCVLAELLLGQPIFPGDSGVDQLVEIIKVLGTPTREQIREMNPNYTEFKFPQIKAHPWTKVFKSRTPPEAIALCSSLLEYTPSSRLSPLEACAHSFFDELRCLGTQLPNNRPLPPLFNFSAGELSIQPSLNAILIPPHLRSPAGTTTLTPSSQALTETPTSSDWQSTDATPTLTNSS
Read-out: enzyme activity
Action: inhibitor
Tested at: 0.5 µM
Reference: control
Structure (SMILES) | remaining activity
COc1cc2c(cc1OC)-c1[nH]nc(Nc3cccc(F)c3)c1C2 | 101%
Cc1nc2cc3nc(-c4cccs4)cnc3cc2n1C | 94.1%
Cn1nc2c3c(cccc31)C(=O)c1ccccc1-2 | 91.1%
O=c1cc(-c2cccc3c2Sc2ccccc2S3)oc(N2CCOCC2)c1 | 86.7%
CCN(CC)CCNC(=O)c1c(C)[nH]c(/C=C2\C(=O)Nc3ccc(Cl)cc32)c1C | 88.3%
CCN(CC)C(=O)c1ccc(Nc2nc(OCC3CCCCC3)c3[nH]cnc3n2)cc1 | 80.3%
O=C(Nc1cccc(Nc2nccc(Nc3cccc(C(F)(F)F)c3)n2)c1)C1CC1 | 95%
CCN(CC)CCNC(=O)c1c(C)[nH]c(/C=C2\C(=O)Nc3ccc(F)cc32)c1C | 85.5%
Ic1cccc(CSc2nnc(-c3ccncc3)o2)c1 | 42.7%
CN([C@@H](Cc1ccc(OS(=O)(=O)c2cccc3cnccc23)cc1)C(=O)N1CCN(c2ccccc2)CC1)S(=O)(=O)c1cccc2cnccc12 | 99.8%
N#C/C(=C\c1ccc(O)c(O)c1)C(=O)NCc1ccccc1 | 96.5%
C[C@@H]1CCN(C(=O)CC#N)C[C@@H]1N(C)c1ncnc2[nH]ccc12 | 103%
O=C1C(Cl)=C(N2C(=O)CCC2=O)C(=O)c2ccccc21 | 99.8%
COc1cc2ncnc(Nc3ccc(O)c(Br)c3)c2cc1OC | 131%
O=C1c2ccccc2-c2n[nH]c3cccc1c23 | 118%
c1ccc(-c2cnc(Nc3ccc(OCCN4CCCC4)cc3)s2)cc1 | 99.2%
c1ccc(-c2[nH]ncc2-c2ccnc3ccccc23)nc1 | 95.1%
O=C(NC(NC(=S)Nc1ccc(F)c([N+](=O)[O-])c1)C(Cl)(Cl)Cl)C(c1ccccc1)c1ccccc1 (stereo not shown) | 105%
COc1cc2ncnc(Nc3cccc(Cl)c3)c2cc1OC | 104%
N#Cc1c(NC(=O)c2cccc3ccccc23)sc2c1CCCC2 | 97.2%
CN(C)C[C@H]1CCn2c(c(C3=C(c4cn(C)c5ccccc45)C(=O)NC3=O)c3ccccc32)C1 | 14.2%
Cc1cn(-c2cc(NC(=O)c3ccc(C)c(Nc4nccc(-c5cccnc5)n4)c3)cc(C(F)(F)F)c2)cn1 | 99.4%
Nc1cccc(-c2cc3c(Oc4cccc(O)c4)ncnc3[nH]2)c1 | 41.6%
